Results collected from several papers.
A part holds a random share of what one study measured.
UniProt P51451, sequence (whole entry, looked up): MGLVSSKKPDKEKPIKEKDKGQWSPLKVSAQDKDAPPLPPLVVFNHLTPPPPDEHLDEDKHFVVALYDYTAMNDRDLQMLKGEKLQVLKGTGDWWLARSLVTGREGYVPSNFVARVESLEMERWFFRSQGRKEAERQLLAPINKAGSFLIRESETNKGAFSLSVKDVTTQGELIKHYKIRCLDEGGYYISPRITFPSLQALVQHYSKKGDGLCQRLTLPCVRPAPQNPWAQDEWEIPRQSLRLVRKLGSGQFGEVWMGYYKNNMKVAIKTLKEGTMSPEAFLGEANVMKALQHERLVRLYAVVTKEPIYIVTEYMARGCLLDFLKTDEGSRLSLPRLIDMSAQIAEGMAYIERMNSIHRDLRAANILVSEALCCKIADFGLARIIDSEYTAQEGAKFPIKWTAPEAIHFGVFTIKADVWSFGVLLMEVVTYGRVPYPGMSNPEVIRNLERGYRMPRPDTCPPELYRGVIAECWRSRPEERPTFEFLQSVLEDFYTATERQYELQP
UniProt O15111, sequence (whole entry, looked up): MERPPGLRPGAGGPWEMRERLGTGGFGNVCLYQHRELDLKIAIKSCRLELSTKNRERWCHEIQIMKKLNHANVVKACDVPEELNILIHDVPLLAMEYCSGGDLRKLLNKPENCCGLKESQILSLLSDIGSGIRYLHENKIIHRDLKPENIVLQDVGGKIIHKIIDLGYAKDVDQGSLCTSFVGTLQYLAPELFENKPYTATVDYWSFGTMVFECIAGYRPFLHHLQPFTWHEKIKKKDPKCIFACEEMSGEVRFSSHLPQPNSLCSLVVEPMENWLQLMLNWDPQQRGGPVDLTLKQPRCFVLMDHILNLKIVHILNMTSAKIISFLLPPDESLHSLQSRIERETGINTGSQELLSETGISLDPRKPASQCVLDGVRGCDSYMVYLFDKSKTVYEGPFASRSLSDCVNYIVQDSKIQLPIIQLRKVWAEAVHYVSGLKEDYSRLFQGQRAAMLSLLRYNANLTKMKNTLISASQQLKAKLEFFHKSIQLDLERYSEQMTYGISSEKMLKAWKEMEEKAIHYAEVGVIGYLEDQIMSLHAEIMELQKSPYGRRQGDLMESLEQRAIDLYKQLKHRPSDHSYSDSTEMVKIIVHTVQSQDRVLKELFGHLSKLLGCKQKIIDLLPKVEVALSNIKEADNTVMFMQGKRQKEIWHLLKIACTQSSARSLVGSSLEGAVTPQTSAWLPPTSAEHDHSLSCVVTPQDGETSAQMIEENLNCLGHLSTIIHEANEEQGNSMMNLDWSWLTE
UniProt P37023, sequence (whole entry, looked up): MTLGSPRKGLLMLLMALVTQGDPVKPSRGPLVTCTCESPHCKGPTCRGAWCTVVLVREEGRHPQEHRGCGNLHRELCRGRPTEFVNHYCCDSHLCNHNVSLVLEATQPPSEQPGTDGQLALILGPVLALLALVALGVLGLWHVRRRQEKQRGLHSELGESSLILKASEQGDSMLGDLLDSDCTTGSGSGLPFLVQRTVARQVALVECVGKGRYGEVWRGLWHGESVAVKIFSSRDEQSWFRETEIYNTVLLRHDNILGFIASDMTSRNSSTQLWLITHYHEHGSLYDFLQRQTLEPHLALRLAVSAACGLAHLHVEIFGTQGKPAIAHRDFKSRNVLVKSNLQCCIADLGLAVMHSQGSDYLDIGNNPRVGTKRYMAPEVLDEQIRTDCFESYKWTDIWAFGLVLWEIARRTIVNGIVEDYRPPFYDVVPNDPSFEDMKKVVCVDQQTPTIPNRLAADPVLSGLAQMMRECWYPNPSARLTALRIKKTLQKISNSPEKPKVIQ
UniProt P54762, sequence (whole entry, looked up): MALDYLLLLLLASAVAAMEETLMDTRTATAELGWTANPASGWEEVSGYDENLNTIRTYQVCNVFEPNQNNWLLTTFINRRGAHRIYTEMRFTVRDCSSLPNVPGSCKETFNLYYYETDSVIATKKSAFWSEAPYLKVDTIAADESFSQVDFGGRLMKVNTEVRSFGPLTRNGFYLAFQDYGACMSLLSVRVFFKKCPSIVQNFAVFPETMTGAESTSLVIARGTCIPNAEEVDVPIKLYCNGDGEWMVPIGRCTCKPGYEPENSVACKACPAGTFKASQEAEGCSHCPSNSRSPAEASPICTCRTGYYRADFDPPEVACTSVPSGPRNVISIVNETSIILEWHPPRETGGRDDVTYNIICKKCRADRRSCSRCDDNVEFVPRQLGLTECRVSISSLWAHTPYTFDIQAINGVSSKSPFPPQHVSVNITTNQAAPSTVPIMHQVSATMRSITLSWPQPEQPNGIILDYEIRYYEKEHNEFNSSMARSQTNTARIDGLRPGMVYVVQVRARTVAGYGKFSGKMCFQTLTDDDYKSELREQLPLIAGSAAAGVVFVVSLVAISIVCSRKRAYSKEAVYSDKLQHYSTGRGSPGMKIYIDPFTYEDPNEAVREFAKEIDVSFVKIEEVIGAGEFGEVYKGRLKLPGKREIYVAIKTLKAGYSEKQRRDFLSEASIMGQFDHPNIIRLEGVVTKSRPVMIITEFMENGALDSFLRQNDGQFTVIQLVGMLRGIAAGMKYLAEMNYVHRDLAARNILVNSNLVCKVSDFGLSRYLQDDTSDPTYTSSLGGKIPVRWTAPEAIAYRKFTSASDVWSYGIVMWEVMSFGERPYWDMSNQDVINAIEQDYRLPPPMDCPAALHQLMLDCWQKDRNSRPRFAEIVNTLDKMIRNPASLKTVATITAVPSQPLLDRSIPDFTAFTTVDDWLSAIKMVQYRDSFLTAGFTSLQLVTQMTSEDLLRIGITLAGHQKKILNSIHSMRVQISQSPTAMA
UniProt P42336, sequence (whole entry, unmodified, looked up): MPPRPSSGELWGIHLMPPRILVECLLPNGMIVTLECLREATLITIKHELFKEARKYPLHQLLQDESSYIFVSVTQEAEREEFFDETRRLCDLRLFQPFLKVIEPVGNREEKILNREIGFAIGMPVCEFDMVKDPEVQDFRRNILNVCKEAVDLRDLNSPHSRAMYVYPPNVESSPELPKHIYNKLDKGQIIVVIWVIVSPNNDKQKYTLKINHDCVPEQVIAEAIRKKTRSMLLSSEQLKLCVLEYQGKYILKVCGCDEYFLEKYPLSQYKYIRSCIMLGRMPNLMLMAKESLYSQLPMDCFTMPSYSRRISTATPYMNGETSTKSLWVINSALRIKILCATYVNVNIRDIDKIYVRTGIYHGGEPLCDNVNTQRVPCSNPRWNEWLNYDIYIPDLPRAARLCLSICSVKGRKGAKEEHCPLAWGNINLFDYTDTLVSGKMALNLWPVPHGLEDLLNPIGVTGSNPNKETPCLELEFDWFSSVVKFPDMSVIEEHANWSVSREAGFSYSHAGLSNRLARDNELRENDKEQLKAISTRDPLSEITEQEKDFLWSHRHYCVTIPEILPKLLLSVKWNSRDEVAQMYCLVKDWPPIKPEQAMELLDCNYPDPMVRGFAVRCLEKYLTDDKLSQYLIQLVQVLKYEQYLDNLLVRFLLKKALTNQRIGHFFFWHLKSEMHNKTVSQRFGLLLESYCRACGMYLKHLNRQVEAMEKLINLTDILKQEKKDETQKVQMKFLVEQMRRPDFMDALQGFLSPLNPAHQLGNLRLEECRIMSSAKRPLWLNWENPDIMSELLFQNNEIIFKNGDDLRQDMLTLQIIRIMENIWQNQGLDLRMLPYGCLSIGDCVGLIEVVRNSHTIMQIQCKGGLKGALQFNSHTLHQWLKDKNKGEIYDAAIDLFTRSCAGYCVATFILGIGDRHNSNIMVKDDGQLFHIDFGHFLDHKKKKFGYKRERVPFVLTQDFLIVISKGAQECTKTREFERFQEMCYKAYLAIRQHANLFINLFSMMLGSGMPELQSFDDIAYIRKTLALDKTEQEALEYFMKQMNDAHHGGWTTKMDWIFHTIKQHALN

Block 1 — effect on: binding; technique: competition with immobilised ligand; tested at: 1 µM
Structure (SMILES): [2H]c1c([2H])c([C@]2([2H])CCCN2C(=O)C(C)(C)Oc2ccc3cn[nH]c3c2)c([2H])c([2H])c1C([2H])([2H])[2H]
target | remaining binding
Serine/threonine-protein kinase LATS1 (LATS1, Homo sapiens, UniProt O95835) | 65%
Ephrin type-B receptor 1 (EPHB1, Homo sapiens, UniProt P54762) | 65%
cAMP-dependent protein kinase catalytic subunit beta (PRKACB, Homo sapiens, UniProt P22694) | 71%
Inhibitor of nuclear factor kappa-B kinase subunit alpha (CHUK, Homo sapiens, UniProt O15111) | 86%
Tyrosine-protein kinase Blk (BLK, Homo sapiens, UniProt P51451) | 93%
Activin receptor type-1-like (ACVRL1, Homo sapiens, UniProt P37023) | 88%
Cyclin-dependent kinase 9 (CDK9, Homo sapiens, UniProt P50750) | 83%
Receptor-type tyrosine-protein kinase FLT3, autoinhibited (FLT3, Homo sapiens, UniProt P36888) | 100%

Other studies, line by line
Structure (SMILES) | tested on | assay | test system | conditions | quantity | value
O=c1nc(N2CCN(CC3CCCCC3)CC2)sc2c([N+](=O)[O-])cc(C(F)(F)F)cc12 |  |  | CD-1 mouse, plasma | oral, 100 mg/kg, 4 h | concentration | 2580 ng/mL
CCN(O)N=Nc1ccc(S(=O)(=O)Nc2cc(C)on2)cc1 |  | DPPH scavenging, absorbance |  | 60 µg/mL | inhibition | 20.9%
C1=C/COCc2cc(ccc2OCCN2CCCC2)Nc2nccc(n2)-c2cccc(c2)COC/1 | Phosphatidylinositol 4,5-bisphosphate 3-kinase catalytic subunit alpha isoform (PIK3CA, Homo sapiens, UniProt P42336, E545K) | binding |  | 0.1 µM | remaining binding | 56%
C=CC(=O)N1CCC(COCC(=O)N2CCN(c3nc(-c4cnc(N)nc4C(F)F)nc(N4CCOC[C@@H]4C)n3)CC2)CC1 | Tyrosine-protein kinase Blk (BLK, Homo sapiens, UniProt P51451) | binding, competition with immobilised ligand |  | 1 µM | remaining binding | 86%
COc1ccc(-c2cc(=O)c3c(O)cc(O[C@@H]4O[C@H](CO)[C@@H](O)[C@H](O)[C@H]4O)cc3o2)cc1O | Helicobacter pylori | microbial growth, broth dilution |  | 15.63 µg/mL | inhibition | 100%
O=C(c1ccc(F)cc1)C1CCN(CCn2c(=O)[nH]c3ccccc3c2=O)CC1 |  | metabolic stability | monkey, liver microsomes | 5 min | compound remaining | 94.3%
Cc1noc(NS(=O)(=O)c2ccc(N=NN(O)c3ccccc3)cc2)c1C |  | DPPH scavenging, absorbance |  | 20 µg/mL | inhibition | 7.96%
COc1cc([C@H]2OC[C@H]3[C@@H]2CO[C@@H]3c2cc(OC)c(O)c(OC)c2)cc(OC)c1O | Helicobacter pylori | microbial growth, broth dilution |  | 0.48 µg/mL | inhibition | 79.3%
